Results pooled from the literature.
Protocols differ between the studies behind these lines. Values joined by “and” are separate records of one study, mostly repeats; a detail may differ. Numbers after ± are the reported error.
Sequence of UniProt Q5VST6 (whole entry, looked up): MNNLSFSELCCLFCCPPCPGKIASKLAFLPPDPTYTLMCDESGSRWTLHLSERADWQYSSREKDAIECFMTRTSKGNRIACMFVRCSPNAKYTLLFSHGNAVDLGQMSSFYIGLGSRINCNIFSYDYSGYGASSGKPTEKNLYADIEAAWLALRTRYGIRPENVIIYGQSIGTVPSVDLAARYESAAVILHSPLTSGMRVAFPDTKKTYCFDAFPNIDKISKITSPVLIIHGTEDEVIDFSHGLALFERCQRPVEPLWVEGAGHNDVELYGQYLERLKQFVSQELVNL
Sequence of UniProt Q07157 (whole entry, looked up): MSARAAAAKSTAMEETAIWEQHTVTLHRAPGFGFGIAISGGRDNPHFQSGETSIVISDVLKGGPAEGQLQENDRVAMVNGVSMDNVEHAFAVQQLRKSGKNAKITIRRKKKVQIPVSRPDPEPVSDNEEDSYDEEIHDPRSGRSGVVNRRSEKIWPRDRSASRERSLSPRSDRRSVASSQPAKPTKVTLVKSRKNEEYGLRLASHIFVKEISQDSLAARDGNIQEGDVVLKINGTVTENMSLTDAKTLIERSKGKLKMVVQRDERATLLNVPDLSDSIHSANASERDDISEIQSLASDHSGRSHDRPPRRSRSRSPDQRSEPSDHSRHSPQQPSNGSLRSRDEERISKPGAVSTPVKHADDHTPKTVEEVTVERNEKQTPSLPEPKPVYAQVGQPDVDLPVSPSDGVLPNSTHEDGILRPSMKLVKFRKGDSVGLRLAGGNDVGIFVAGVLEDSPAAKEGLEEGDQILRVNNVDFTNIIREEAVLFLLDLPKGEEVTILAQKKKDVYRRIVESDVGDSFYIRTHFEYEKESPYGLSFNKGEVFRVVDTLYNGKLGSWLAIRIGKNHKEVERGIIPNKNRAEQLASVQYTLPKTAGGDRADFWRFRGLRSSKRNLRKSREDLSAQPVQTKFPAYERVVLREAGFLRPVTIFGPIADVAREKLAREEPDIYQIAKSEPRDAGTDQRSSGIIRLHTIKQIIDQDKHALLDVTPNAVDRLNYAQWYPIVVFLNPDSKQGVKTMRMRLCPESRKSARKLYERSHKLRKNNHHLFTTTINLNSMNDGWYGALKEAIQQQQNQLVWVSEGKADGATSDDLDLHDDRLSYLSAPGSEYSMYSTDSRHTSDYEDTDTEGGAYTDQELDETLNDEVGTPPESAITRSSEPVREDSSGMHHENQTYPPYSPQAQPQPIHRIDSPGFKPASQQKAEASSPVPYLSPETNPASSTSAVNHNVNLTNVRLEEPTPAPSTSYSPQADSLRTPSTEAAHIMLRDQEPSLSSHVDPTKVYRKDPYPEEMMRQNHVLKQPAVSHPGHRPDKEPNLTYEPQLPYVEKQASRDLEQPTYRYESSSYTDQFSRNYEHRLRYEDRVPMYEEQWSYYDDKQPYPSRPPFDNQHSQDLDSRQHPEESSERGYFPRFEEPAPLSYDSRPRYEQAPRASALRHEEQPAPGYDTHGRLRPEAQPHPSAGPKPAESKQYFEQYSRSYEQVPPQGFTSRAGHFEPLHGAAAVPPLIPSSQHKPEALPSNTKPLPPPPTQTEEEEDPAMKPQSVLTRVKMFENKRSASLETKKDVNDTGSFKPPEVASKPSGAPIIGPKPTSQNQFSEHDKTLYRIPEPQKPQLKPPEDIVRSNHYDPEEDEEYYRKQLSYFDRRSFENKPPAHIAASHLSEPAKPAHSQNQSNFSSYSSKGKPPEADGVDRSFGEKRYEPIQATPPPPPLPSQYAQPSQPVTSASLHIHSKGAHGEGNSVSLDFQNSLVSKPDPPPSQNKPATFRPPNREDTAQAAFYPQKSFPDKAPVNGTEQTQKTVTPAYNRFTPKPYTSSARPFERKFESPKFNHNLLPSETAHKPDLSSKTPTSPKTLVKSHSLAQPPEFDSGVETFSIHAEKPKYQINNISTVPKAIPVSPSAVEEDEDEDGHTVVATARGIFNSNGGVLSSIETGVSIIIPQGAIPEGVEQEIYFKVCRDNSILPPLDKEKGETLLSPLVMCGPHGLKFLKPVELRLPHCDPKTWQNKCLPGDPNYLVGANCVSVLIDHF
Sequence of UniProt Q8IXJ6 (whole entry, looked up): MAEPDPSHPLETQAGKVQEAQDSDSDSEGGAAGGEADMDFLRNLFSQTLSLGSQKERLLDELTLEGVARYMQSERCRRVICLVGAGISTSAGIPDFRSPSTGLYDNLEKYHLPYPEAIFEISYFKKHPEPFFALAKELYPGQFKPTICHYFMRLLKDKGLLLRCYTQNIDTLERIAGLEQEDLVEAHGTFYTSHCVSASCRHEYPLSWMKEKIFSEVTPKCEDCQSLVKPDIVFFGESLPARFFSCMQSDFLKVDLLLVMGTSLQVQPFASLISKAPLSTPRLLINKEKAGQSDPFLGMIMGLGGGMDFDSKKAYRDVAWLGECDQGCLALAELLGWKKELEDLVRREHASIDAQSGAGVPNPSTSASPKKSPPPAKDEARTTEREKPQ

C=CC(=O)N1CC[C@H](n2nc(C#Cc3cc(OC)cc(OC)c3)c3c(N)ncnc32)C1 — TEAE incidence (refers to: abdominal discomfort; healthy adults; oral, grade ≥3, pooled treatments): 0%
CO[C@H]1C[C@@H]2CC[C@@H](C)[C@@](O)(O2)C(=O)C(=O)N2CCCC[C@H]2C(=O)O[C@H]([C@H](C)C[C@@H]2CC[C@@H](OC(=O)NCCOCCOCCOCCOCCOCCOCCOCCOCCC(=O)N3CCc4cc(Cn5nc(-c6ccc7oc(N)nc7c6)c6c(N)ncnc65)ccc4C3)[C@H](OC)C2)C[C@@H](O)[C@H](C)/C=C(\C)[C@@H](O)[C@@H](OC)C(=O)[C@H](C)C[C@H](C)/C=C/C=C/C=C/1C — maculopapular rash TEAE incidence (dose-escalation trial; patients with advanced solid tumours; intravenous, all doses weekly, grade ≥3): 3.5%
C[C@H]1CN(c2n[nH]c3nc(N[C@H]4CC[C@H](NS(=O)(=O)CCC(F)(F)F)CC4)ncc23)CCO1 — remaining binding (Tight junction protein 1 (TJP1, Homo sapiens, UniProt Q07157); Kinobeads competition, refers to: TJP1; 0.16 µM, unit not given; baseline: vehicle): 1.07
COc1ccnc(C(=O)N[C@H]2COC(=O)[C@H](Cc3ccccc3)[C@@H](OC(=O)C(C)C)[C@H](C)OC2=O)c1OCOC(=O)C(C)C — NOAEL (maternal toxicity; rat, female; highest dose tested): 1040 mg/kg/day
O=c1nc(NO)ccn1[C@@H]1O[C@H](CO)[C@@H](O)[C@H]1O — autosampler stability (rat placenta dialysate; 25 ng/mL, 6 h, 10 °C, low QC concentration, with: molnupiravir): 101 ± 3.11%
COc1ncccc1-c1cnn2ccc(N3CCN(C(=O)OC(C)C)CC3)nc12 — drug concentration (rat, CCI mechanical hyperalgesia model, brain; oral, 30 mg/kg, 210 min): 7.3 µM
CC(C)[C@@H]1NC(=O)CNC(=O)[C@H](CC(N)=O)NC(=O)[C@H](CCCNC(=N)N)NC(=O)[C@H](Cc2ccc(O)cc2)NC(=O)[C@H](C(C)C)NC(=O)[C@@H](NC(=O)[C@@H](NC(=O)[C@H](CC(N)=O)NC(=O)[C@H](Cc2c[nH]c3ccccc23)NC(=O)[C@H](C)NC(=O)[C@H](Cc2ccccc2)NC(=O)CN)C(C)C)CSSC[C@@H](C(=O)N[C@@H](Cc2c[nH]cn2)C(=O)N[C@@H](CCCNC(=N)N)C(=O)N[C@@H](CCCNC(=N)N)C(=O)N[C@@H](C)C(=O)N[C@@H](CC(N)=O)C(N)=O)NC(=O)[C@H](C(C)C)NC(=O)[C@H](CCCNC(=N)N)NC1=O — secondary structure content (circular dichroism, refers to: antiparallel β-sheet; PBS; 80 µM, pH 7.4, with: LPS 1 µM): 36.4%
C[C@@H](NC(=O)N1C(=O)[C@H](Cc2ccnc(N)c2)[C@H]1C(=O)O)C1CCCCC1 — abnormal liver function leading to discontinuation (healthy adult Chinese volunteers; continuous intravenous infusion, 0.3 mg/kg/h, 5-day infusion, CTCAE 5.0 grading): 0%
COc1cc(Nc2ncc(F)c(Nc3ccc4c(n3)NC(=O)C(C)(C)O4)n2)cc(OC)c1OC — IC50 (SIRT2 (Homo sapiens, UniProt Q8IXJ6)): > 10 µM
CC(C)[C@@H]1CC[C@@H](C)C[C@@H]1O — triglycerides (acute oral toxicity OECD; Swiss albino mice, serum; oral, 300 mg/kg): 91.4 ± 4.85 mg/dL
NCCCC[C@@H]1NC(=O)[C@@H](Cc2c[nH]c3ccccc23)NC(=O)[C@H](c2ccccc2)NC(=O)[C@@H]2C[C@@H](OC(=O)NCCN)CN2C(=O)[C@H](Cc2ccccc2)NC(=O)[C@H](Cc2ccc(OCc3ccccc3)cc2)NC1=O — subjects with adverse event Nasopharyngitis (healthy human volunteers; 600 µg twice daily): 1%
CCN(CCO)CCCC(C)Nc1ccnc2cc(Cl)ccc12 (stereo not drawn) — AST increased patients (newly diagnosed glioblastoma patients; oral, 400 mg/dose, grade 1, with: radiotherapy plus temozolomide): 29%
C[C@]1(CO)Cc2ncn(-c3ccc(C#N)c(Cl)c3)c2C(=O)O1 — subjects with any TEAE (human, Chinese; 60 mg single dose): 16.7%
O=c1oc2c(O)c(O)cc3c(=O)oc4c(O)c(O)cc1c4c23 — liver weight (acute oral toxicity; BALB/c mice; oral, dose not given): 1.38 g
COc1cccc(Oc2ccccc2NC(=O)CNC(=O)c2cccc3ccccc23)c1 — serum cholesterol (esterase-deficient SCID mice, male; oral, 100 mg/kg/day, 14 days, toxicity study): 42 mg/dL and 53 mg/dL and 36 mg/dL
COc1cc2c(Oc3ccc4[nH]c(C)cc4c3F)ccnc2cc1OCC1(N)CC1 — dose-limiting toxicity incidence (sarcoma, recurrent or refractory, high-risk, paediatric; dose not given): 5.9%
CC[C@H](C)[C@@H]1NC(=O)[C@@H]2CCCN2C(=O)[C@H](CC(C)C)NC(=O)[C@H](CC(C)C)NC(=O)CNC(=O)[C@@H](NC(=O)[C@@H](NC(=O)[C@H](CC(=O)O)NC(=O)CNC(=O)[C@@H](NC(=O)[C@H](C)NC(=O)CNC(=O)[C@H](CCCCN)NC(=O)[C@H](CC(C)C)NC(=O)[C@H](CC(C)C)NC(=O)[C@H](CCCCN)NC(=O)CNC(=O)[C@@H](NC(=O)[C@@H](N)CC(C)C)C(C)C)C(C)C)C(C)C)CSSC[C@@H](C(=O)O)NC1=O — log2 fold change (RNA-seq, refers to: Clec12a; mouse, traumatic brain injury model, frontal cortex and hippocampus; dose not given; baseline: TBI alone): -1.82
Clc1cc2c(cc1Cl)Oc1cc(Cl)c(Cl)cc1O2 — mRNA fold change (RNA-Seq, refers to: Cyp1a1; Sprague-Dawley rat, female, liver; 10 µg/kg; baseline: vehicle): 680 fold
CC(C)(O)c1cc(Nc2cc(Oc3cn(C4CC4)nc3C3CCOCC3)ccn2)ccn1 — treatment-emergent adverse events (Vomiting; advanced cancer patients, dose escalation; oral, dose not given, 2 weeks on/off, all causality grade ≥3): 0%
CC(C)c1nc(N(C)S(C)(=O)=O)nc(-c2ccc(F)cc2)c1/C=C/[C@@H](O)C[C@@H](O)CC(=O)O — incidence of Acne (healthy human subjects; oral, dose not given, study CL-0537 safety set): 0%
C[C@@H]1NC(=O)[C@H](CCCCNC(=O)CO/N=C/C(=O)NCCCC[C@@H]2NC(=O)[C@@H](Cc3ccccc3)NC(=O)[C@H](CC(=O)O)NC(=O)CNC(=O)[C@H](CCCNC(=N)N)NC2=O)NC(=O)CNC(=O)[C@@H]2CCCN2C(=O)[C@H](CCCCNC(=O)CO/N=C/C(=O)NCCCC[C@@H]2NC(=O)[C@@H](Cc3ccccc3)NC(=O)[C@H](CC(=O)O)NC(=O)CNC(=O)[C@H](CCCNC(=N)N)NC2=O)NC(=O)[C@H](CCCCNC(=O)[C@H](CCCCN)NC(=O)[C@H](Cc2ccccc2)NC(=O)CNC(=O)CN2CCCNCCNCCCNCC2)NC(=O)[C@H](CCCCNC(=O)CO/N=C/C(=O)NCCCC[C@@H]2NC(=O)[C@@H](Cc3ccccc3)NC(=O)[C@H](CC(=O)O)NC(=O)CNC(=O)[C@H](CCCNC(=N)N)NC2=O)NC(=O)CNC(=O)[C@@H]2CCCN2C(=O)[C@H](CCCCNC(=O)CO/N=C/C(=O)NCCCC[C@@H]2NC(=O)[C@@H](Cc3ccccc3)NC(=O)[C@H](CC(=O)O)NC(=O)CNC(=O)[C@H](CCCNC(=N)N)NC2=O)NC1=O [copper-64 labelled] — tissue uptake (biodistribution after PET; mouse, U-87 MG tumour xenograft, kidney; intravenous, 24 h): 12 ± 1.17 %ID/g
O=c1ccc2ccc3occc3c2o1 — accuracy (post-procedure stability; rat plasma; 200 ng/mL, 3 h, room temperature): 115%
O=S(=O)(Nc1ccccc1)c1ccc(NC(=S)Nc2ccccc2)cc1 — blood cell fraction (refers to: NE%; male mouse, blood; oral, 5 mg/kg daily, 14 days): 17.6%
CN1CCN(c2cccc3c2CCN(C(=O)/C=C/c2c(-n4cnnn4)ccc(Cl)c2F)[C@@H]3C(=O)Nc2ccc(C(=O)O)cc2)C(=O)C1 — deaths (healthy human subjects; intravenous infusion, 3 mg/h, 5 days): 0%
CC(C)CC(=O)OC[C@H]1O[C@@](C#N)(c2ccc3c(N)ncnn23)[C@H](O)[C@@H]1O — remaining compound (human hepatocytes; 15 min): 0.158 ± 0.0683%
O=C1Nc2cc3[nH]nc(-c4ccncc4)c3cc2CN1Cc1ccccc1 — patients with TEAE (refers to: blurred vision; patients with advanced solid tumours; intravenous, dose not given): 33%
Cc1c(COC(=O)[C@@H]2[C@H](/C=C(\Cl)C(F)(F)F)C2(C)C)cccc1-c1ccccc1 (racemic) — enzyme contribution to clearance (refers to: CYP2C19; human, age 5 years, recombinant human CYP2C19; 0.1 µM): 54.4%
COc1ccc([C@@H](O)c2cc(-c3ncnc4cc(N5CCOCC5)ccc34)c(F)cc2Cl)nn1 — hypokalaemia incidence (patients, advanced solid tumours; oral, 250 mg twice daily, treatment-emergent, with: avelumab): 3%
CC(=O)c1c(C)c2cnc(Nc3ccc(C4CCN(CCS(C)(=O)=O)CC4)cn3)nc2n(C2CCCC2)c1=O — lethal dose (beagle dog male and female; oral gavage twice daily, 4 weeks): 20 mg/kg/day
CC[C@H](C)[C@H](NC(=O)[C@H](Cc1ccccc1)NC(=O)[C@H](CCC(=O)O)NC(=O)[C@H](CCCNC(=N)N)NC(=O)[C@H](C)NC(=O)[C@H](C)NC(=O)[C@H](CCC(N)=O)NC(=O)[C@H](CCC(=O)O)NC(=O)[C@H](CCC(=O)O)NC(=O)[C@H](CC(C)C)NC(=O)[C@H](Cc1ccc(O)cc1)NC(=O)[C@H](CO)NC(=O)[C@H](CO)NC(=O)[C@@H](NC(=O)[C@H](CC(=O)O)NC(=O)[C@H](CO)NC(=O)[C@@H](NC(=O)[C@H](Cc1ccccc1)NC(=O)[C@@H](NC(=O)CNC(=O)[C@H](CCC(=O)O)NC(=O)[C@H](C)NC(=O)CCc1c[nH]cn1)[C@@H](C)O)[C@@H](C)O)C(C)C)C(=O)N[C@@H](C)C(=O)N[C@@H](Cc1c[nH]c2ccccc12)C(=O)N[C@@H](CC(C)C)C(=O)N[C@H](C(=O)N[C@@H](CCCNC(=N)N)C(=O)NCC(=O)N[C@@H](CCCNC(=N)N)C(=O)N[C@@H](CCCCNC(=O)COCCOCCNC(=O)COCCOCCNC(=O)CC[C@H](NC(=O)CCCCCCCCCCCCCCCCC(=O)O)C(=O)O)C(=O)NCC(=O)NCC(=O)N[C@@H](CO)C(=O)N[C@@H](CCCCNc1c(NCCCCCN(O)C(=O)CCC(=O)NCCCCCN(O)C(=O)CCC(=O)NCCCCCN(O)C(C)=O)c(=O)c1=O)C(=O)O)C(C)C [zirconium-89 labelled] — tissue uptake (rat, lung; sc, 3 nmol/kg, 24 h, ex vivo): 1.33 %ID/g
C[C@@H](O)[C@@H](CO)NC(=O)[C@@H](CCCNC(=N)N)NC(=O)[C@@H]1CCCN1C(=O)[C@@H]1CSSC[C@H](NC(=O)[C@H](Cc2ccccc2)NC(=O)CN2CCN(CC(=O)O)CCN(CC(=O)O)CCN(CC(=O)O)CC2)C(=O)N[C@@H](Cc2ccc(O)cc2)C(=O)N[C@@H](Cc2ccccc2)C(=O)N[C@@H](CCC(N)=O)C(=O)N[C@@H](CC(N)=O)C(=O)N1 [gallium-68 labelled] — tissue uptake (Wistar rat, muscle; intravenous, 8 MBq, 30 min, group mean): 0.73 %ID/g
Clc1ccc(-c2ccccc2)cc1 — serum Potassium (rat Sprague-Dawley female, serum; inhalation, 35 µg/rat, 24 h): 4 ± 0.3 mmol/L
O=C(c1ccc(Cl)cc1)N1CCN2C(=O)N(OC(=O)N3CCOc4ccccc43)C(=O)C2C1 (stereo not drawn) — median ratio (ABHD17B (Homo sapiens, UniProt Q5VST6); enzyme activity, inhibitor, MS-based ABPP; SW-620 in situ; 10 µM, 2 h, 37 °C; baseline: compound over DMSO, lower = stronger inhibition): 1.07

Excerpt of the above:
COc1cccc(Oc2ccccc2NC(=O)CNC(=O)c2cccc3ccccc23)c1 — serum cholesterol (esterase-deficient SCID mice, male; oral, 100 mg/kg/day, 14 days, toxicity study): 42 mg/dL and 53 mg/dL and 36 mg/dL
CO[C@H]1C[C@@H]2CC[C@@H](C)[C@@](O)(O2)C(=O)C(=O)N2CCCC[C@H]2C(=O)O[C@H]([C@H](C)C[C@@H]2CC[C@@H](OC(=O)NCCOCCOCCOCCOCCOCCOCCOCCOCCC(=O)N3CCc4cc(Cn5nc(-c6ccc7oc(N)nc7c6)c6c(N)ncnc65)ccc4C3)[C@H](OC)C2)C[C@@H](O)[C@H](C)/C=C(\C)[C@@H](O)[C@@H](OC)C(=O)[C@H](C)C[C@H](C)/C=C/C=C/C=C/1C — maculopapular rash TEAE incidence (dose-escalation trial; patients with advanced solid tumours; intravenous, all doses weekly, grade ≥3): 3.5%
COc1ncccc1-c1cnn2ccc(N3CCN(C(=O)OC(C)C)CC3)nc12 — drug concentration (rat, CCI mechanical hyperalgesia model, brain; oral, 30 mg/kg, 210 min): 7.3 µM
O=c1oc2c(O)c(O)cc3c(=O)oc4c(O)c(O)cc1c4c23 — liver weight (acute oral toxicity; BALB/c mice; oral, dose not given): 1.38 g
CC(C)CC(=O)OC[C@H]1O[C@@](C#N)(c2ccc3c(N)ncnn23)[C@H](O)[C@@H]1O — remaining compound (human hepatocytes; 15 min): 0.158 ± 0.0683%
